Published values gathered from unrelated publications.
± marks the error that the study gave.
Action: inhibitor
XDH: Xanthine dehydrogenase/oxidase (XDH, Bos taurus, UniProt P80457)
UniProt P80457, sequence (whole entry, looked up): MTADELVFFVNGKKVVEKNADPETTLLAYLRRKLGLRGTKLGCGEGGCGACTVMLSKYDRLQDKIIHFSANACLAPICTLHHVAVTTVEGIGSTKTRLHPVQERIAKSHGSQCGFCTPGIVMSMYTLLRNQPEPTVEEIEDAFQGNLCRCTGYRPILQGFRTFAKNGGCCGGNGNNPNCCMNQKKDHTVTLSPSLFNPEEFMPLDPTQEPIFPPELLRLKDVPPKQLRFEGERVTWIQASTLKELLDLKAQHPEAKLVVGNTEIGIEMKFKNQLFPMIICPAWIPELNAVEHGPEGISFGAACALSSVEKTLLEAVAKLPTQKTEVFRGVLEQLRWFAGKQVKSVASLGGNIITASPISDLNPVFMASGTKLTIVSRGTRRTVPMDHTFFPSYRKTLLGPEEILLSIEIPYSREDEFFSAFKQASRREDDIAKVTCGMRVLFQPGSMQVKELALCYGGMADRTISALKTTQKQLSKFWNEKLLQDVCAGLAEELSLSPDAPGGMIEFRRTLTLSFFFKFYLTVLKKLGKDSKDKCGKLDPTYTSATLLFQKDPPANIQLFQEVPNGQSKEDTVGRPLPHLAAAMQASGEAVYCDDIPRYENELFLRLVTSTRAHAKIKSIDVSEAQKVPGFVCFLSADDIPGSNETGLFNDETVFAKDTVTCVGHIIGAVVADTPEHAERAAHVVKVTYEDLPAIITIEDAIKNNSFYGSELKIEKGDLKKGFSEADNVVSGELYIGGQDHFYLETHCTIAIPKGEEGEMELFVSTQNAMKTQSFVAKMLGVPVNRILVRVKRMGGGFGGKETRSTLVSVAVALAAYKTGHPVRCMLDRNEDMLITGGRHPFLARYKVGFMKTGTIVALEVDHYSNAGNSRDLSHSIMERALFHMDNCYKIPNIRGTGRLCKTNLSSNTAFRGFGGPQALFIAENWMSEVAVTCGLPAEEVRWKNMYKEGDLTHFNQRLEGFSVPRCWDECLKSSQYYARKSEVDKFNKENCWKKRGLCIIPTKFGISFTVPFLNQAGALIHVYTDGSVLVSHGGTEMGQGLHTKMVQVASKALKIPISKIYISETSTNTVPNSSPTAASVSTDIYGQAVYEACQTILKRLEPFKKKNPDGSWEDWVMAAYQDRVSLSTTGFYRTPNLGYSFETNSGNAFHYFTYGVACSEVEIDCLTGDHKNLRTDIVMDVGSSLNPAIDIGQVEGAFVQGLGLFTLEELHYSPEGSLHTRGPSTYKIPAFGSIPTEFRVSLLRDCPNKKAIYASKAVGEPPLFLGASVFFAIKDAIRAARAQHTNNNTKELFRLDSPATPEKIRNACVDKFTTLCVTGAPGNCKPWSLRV
XDH oxidase form: Xanthine dehydrogenase/oxidase, oxidase form (XDH, Bos taurus, UniProt P80457)

COc1ccc(CCO[C@@H]2O[C@H](CO)[C@@H](OC(=O)/C=C/c3ccc(O)c(OC)c3)[C@H](O[C@@H]3O[C@@H](C)[C@H](O)[C@@H](O)[C@H]3O)[C@H]2O)cc1O  IC50 (XDH; enzyme activity, absorbance): 64.5 µM
Nn1c(Cn2nnc3ccccc32)n[nH]c1=S  IC50 (XDH oxidase form; enzyme activity): ≤ 404 µM
COc1ccc(/C=C/c2cc(O)cc(O)c2)cc1O  IC50 (XDH; superoxide generation; pH 10.0, 25 °C, with: 200 µM xanthine): 6 ± 1 µM
Cc1nc2ccccc2c(=O)n1N  IC50 (XDH; enzyme activity): 340 ± 4.95 µM
OCC1OC(Oc2ccc(C=Cc3cc(O)cc(O)c3)cc2)C(O)C(O)C1O (centres unmarked)  IC50 (XDH; superoxide generation; pH 10.0, 25 °C, with: 200 µM xanthine): 11 ± 2 µM
Cc1ccc(/N=C/c2ccccc2O)cc1  IC50 (XDH; enzyme activity): 149 µM
COc1cc(/C=C/c2cc(O)cc(O)c2)ccc1O  IC50 (XDH; enzyme activity, absorbance; pH 10): 99 µM
O=C(/C=C/c1ccc(O)c(O)c1)O[C@@H]1[C@H](O)C[C@@](O)(C(=O)O)C[C@H]1OC(=O)/C=C/c1ccc(O)c(O)c1  IC50 (XDH; enzyme activity): 69.4 µM
C[C@@H]1O[C@@H](OC[C@H]2O[C@@H](Oc3cc(O)c4c(=O)cc(-c5ccc(O)c(O)c5)oc4c3)[C@H](O)[C@@H](O)[C@@H]2O)[C@H](O)[C@H](O)[C@H]1O  IC50 (XDH; enzyme activity, absorbance): 19.3 µM
O=C1C=C(c2ccc(O)c(O)c2)C(O)O1 (centres unmarked)  IC50 (XDH; enzyme activity, absorbance): 367 µM
c1ccc2[nH]nnc2c1  IC50 (XDH oxidase form; enzyme activity): ≤ 839 µM
COc1c(C)c(-c2cc(O)c3c(c2O)C(=O)C(C)=CC3=O)c(OC)c2c1C(=O)C=CC2=O  IC50 (XDH; enzyme activity, absorbance): 1.09 µM
NNC(=O)Cn1nnc2ccccc21  IC50 (XDH oxidase form; enzyme activity): ≤ 523 µM
COC(=O)[C@]1(O)C[C@@H](OC(=O)/C=C/c2ccc(O)c(O)c2)[C@@H](O)[C@H](OC(=O)/C=C/c2ccc(O)c(O)c2)C1  IC50 (XDH; enzyme activity): 92.1 µM

A few entries again:
COC(=O)[C@]1(O)C[C@@H](OC(=O)/C=C/c2ccc(O)c(O)c2)[C@@H](O)[C@H](OC(=O)/C=C/c2ccc(O)c(O)c2)C1  IC50 (XDH; enzyme activity): 92.1 µM
O=C1C=C(c2ccc(O)c(O)c2)C(O)O1 (centres unmarked)  IC50 (XDH; enzyme activity, absorbance): 367 µM
